Measurements of several laboratories.
Each numbered part is a random draw from the data of one study; scales do not carry over between parts. Substitutions count along the parent as printed.

Study 1
Target: CCND3, cyclin fold, Cln2 fusion (human)
Technique: yeast growth competition, sequencing
Matrix: yeast
Setting: weak parent motif
Relative to: not given
Reading: higher = stronger binding
Starting sequence: CDKN1A docking peptide (human); SKACRRLFGPVDS; partner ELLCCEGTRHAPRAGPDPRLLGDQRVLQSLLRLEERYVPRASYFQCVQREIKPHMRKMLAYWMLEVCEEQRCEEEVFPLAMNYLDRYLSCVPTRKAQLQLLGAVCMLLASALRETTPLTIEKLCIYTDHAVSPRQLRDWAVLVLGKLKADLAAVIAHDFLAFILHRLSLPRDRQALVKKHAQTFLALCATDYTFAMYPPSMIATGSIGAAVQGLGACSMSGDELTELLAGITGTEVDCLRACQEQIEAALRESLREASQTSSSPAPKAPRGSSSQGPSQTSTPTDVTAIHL
Under “normalised enrichment score”, `SKACRRLFGPVYS [D12Y]` is recorded as -0.0268.
For `SKAMRRLFGPVDS [C4M]`, “normalised enrichment score” read -0.31.
`SKACKRLLGPVDS [R5K F8L]` — result for “normalised enrichment score”: 0.175.
Under “normalised enrichment score”, `AKACRRLFGPVDS [S1A]` is recorded as 0.165.
For `SIACRRLFGPVDS [K2I]`, “normalised enrichment score” read 0.537.
`SKACRRKFGPVDS [L7K]` — result for “normalised enrichment score”: 0.223.
For `SLACRRLFGPVDS [K2L]`, “normalised enrichment score” read 0.349.
For `SKACRRLFGPKDS [V11K]`, “normalised enrichment score” read 0.0223.

Study 2
Target: OGT, full length, His-tagged (human)
Technique: phage display, sequencing
Matrix: in vitro
Concentration: 1 µg OGT
Setting: single substitutions, 15-mer displayed peptide, unchanged parent 19.6
Relative to: input library
Reading: higher = stronger binding
Starting sequence: peptide; TAPFYPPAYQIQVFK
`TAPFYPPAGQIQVFK [Y9G]` has a fold enrichment of 0.536 fold.
For `TAPFYPPAYQIEVFK [Q12E]`, the fold enrichment was 18 fold.
With `TAPFYPPAIQIQVFK [Y9I]` the fold enrichment was 3.9 fold.
The fold enrichment of `TAPFYPPAYQIHVFK [Q12H]` is reported as 18 fold.
For `TAGFYPPAYQIQVFK [P3G]`, the fold enrichment was 20.5 fold.
`TAPFYPPAWQIQVFK [Y9W]` has a fold enrichment of 0.641 fold.
`TAPWYPPAYQIQVFK [F4W]` has a fold enrichment of 20.9 fold.
`TAPFYPPAHQIQVFK [Y9H]` gave a fold enrichment of 0.449 fold.

Further values, each from its own experiment
P1: PafA, mature enzyme, eGFP fusion (Elizabethkingia meningoseptica, UniProt Q9KJX5); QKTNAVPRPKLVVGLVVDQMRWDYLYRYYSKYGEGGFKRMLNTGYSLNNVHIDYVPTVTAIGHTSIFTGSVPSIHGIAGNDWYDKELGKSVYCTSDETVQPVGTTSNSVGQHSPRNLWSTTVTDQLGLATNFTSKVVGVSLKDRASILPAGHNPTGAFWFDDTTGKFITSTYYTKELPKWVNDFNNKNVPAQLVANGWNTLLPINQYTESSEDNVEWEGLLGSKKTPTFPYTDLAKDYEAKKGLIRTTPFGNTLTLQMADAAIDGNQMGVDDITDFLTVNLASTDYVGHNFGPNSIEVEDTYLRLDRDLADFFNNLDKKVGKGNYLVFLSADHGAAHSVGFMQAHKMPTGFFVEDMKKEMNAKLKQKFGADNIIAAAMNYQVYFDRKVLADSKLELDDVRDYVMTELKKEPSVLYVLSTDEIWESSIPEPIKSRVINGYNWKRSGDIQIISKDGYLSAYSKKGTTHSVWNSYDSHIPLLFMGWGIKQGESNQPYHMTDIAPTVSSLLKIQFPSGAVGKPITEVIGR
`KIF5B (Homo sapiens, UniProt P33176)`: interaction screen “cross-linked” (KLC1 (Homo sapiens, UniProt Q07866); cross-linking MS; hits only).
For `P1 E522G`, “oxyanion analog dissociation constant” read 0.589 µM (vanadate, free oxyanion; microfluidic competitive inhibition; in vitro, cell-free expressed; not given, derived from inhibition constants, unchanged parent 676 nM; lower = stronger binding).
For `PDCD11 (Homo sapiens, UniProt Q14690)`, cross-linked residues read “T128 to T91” (DDX56 (Homo sapiens, UniProt Q9NY93); cross-linking MS; cell fractions; added: DSSO).
`FAM98A (Homo sapiens, UniProt Q8NCA5)` — result for interaction screen: “cross-linked” (RTRAF (Homo sapiens, UniProt Q9Y224); cross-linking MS; hits only).
`HSPA9 (Homo sapiens, UniProt P38646)`: cross-linked residues “K106 to K1193” (CASP8AP2 (Homo sapiens, UniProt Q9UKL3); cross-linking MS; cell fractions; added: DSSO).

Some of these lines once more (study 2):
`TAPFYPPAGQIQVFK [Y9G]` has a fold enrichment of 0.536 fold.
